Measurements collected from several papers.
Compare with care: the assays were run in different laboratories. Numbers after ± are the reported error.

SMILES = O=C(N1CCC2(CC1)C[C@@H](CN1CCCCS1(=O)=O)CCO2)C1(c2ccccc2)CCCC1; organism = echovirus 11; assay = viral replication; endpoint = EC50; result = > 32000 nM
SMILES = CC1(C)OB(c2cccc(NS(=O)(=O)c3cc(C(=O)Nc4ccc(F)c(F)c4)ccc3F)c2)OC1(C)C; organism = hepatitis B virus; assay = viral replication, qPCR, measured: positive-strand HBV DNA; system = HepDES19, genotype D; setting = 3 days; endpoint = EC50; result = 5070 nM
SMILES = COc1ccc([C@@]23Oc4cc(OC)cc(OC)c4[C@@]24N=C(C)N[C@@]4(O)[C@H](C(=O)N(C)OC)[C@H]3c2ccccc2)cc1; organism = Hepatitis E virus; assay = viral replication; system = HepG2 HEV-3 replicon, genotype 3; setting = 24 h, racemate; endpoint = EC50; result = 1 nM
SMILES = [2H]C([2H])(c1cc(F)c(F)cc1F)n1c(=O)n(Cc2ncn(C)n2)c(=O)[nH]/c1=N\c1cc2cn(C)nc2cc1Cl; organism = canine coronavirus; assay = viral replication, qRT-PCR; system = CRFK; endpoint = EC50; result = ~50000 nM
SMILES = O=c1cc(N2CCOCC2)oc2c(-c3cccc4c3sc3ccccc34)cccc12; organism = human coronavirus OC43; assay = virus-induced cell killing; system = MRC-5; setting = screen; endpoint = maximum inhibition; result = 7.87%
SMILES = CC(C)[C@H](NC(=O)c1ccccc1NC(=O)c1ccc(O)cc1)C(=O)N[C@H](CO)C(C)C; organism = human coronavirus OC43; assay = viral replication, plaque reduction; system = MRC-5; setting = 6 days; endpoint = EC50; result = > 50000 nM
SMILES = CC1(C)OB(c2ccccc2NS(=O)(=O)c2cc(C(=O)Nc3ccc(F)c(F)c3)ccc2F)OC1(C)C; organism = hepatitis B virus; assay = viral replication, qPCR, measured: positive-strand HBV DNA; system = HepDES19, genotype D; setting = 3 days; endpoint = EC50; result = > 5000 nM
SMILES = c1ccc2c(c1)[I+]c1ccccc1-2; organism = Toxoplasma gondii; system = TgMe49-Fluc, type II; setting = tachyzoites; endpoint = EC50; result = 10 nM
SMILES = NCCCNCCSP(=O)(O)O; organism = human coronavirus OC43; assay = virus-induced cell killing; system = MRC-5; setting = screen; endpoint = maximum inhibition; result = 9.01%
SMILES = COc1cc2c3c(c1OC)-c1ccccc1C[C@H]3N(C)CC2; organism = Toxoplasma gondii; assay = parasite growth, luciferase reporter; system = HFF, tachyzoite; setting = 72 h; endpoint = EC50; result = 21500 nM
SMILES = COC(=O)N[C@H](C(=O)N1CCC[C@H]1c1ncc(-c2ccc(-c3ccc(-c4cnc([C@@H]5CCCN5C(=O)[C@@H](NC(=O)OC)C(C)C)[nH]4)cc3)cc2)[nH]1)C(C)C; organism = human immunodeficiency virus; assay = viral replication; system = MT-2; endpoint = EC50; result = > 20000 nM
SMILES = O=C(Nc1cc(F)c(F)c(F)c1)c1ccc(F)c(S(=O)(=O)NCc2cccc(B(O)O)c2)c1; organism = hepatitis B virus; assay = viral replication, qPCR, measured: positive-strand HBV DNA; system = HepDES19, genotype D; setting = 3 days; endpoint = EC50; result = 830 ± 330 nM
SMILES = C[C@H]1CCC/C=C/[C@@H]2C[C@H](O)C[C@H]2[C@H](O)/C=C/C(=O)O1; organism = Toxoplasma gondii; assay = parasite growth, luciferase reporter; system = HFF host cells, tachyzoites; setting = 72 h; endpoint = EC50; result = 60 nM
SMILES = CC1(C)OB(c2cccc(NS(=O)(=O)c3cc(C(=O)Nc4cc(F)c(F)c(F)c4)ccc3F)c2)OC1(C)C; organism = hepatitis B virus; assay = viral replication, qPCR, measured: positive-strand HBV DNA; system = HepDES19, genotype D; setting = 3 days; endpoint = EC50; result = > 5000 nM
SMILES = C[C@@H]1C[C@@H]([C@H](O)CC2CC(=O)NC(=O)C2)C(=O)[C@@H](C)C1; organism = Mus musculus; assay = gene silencing, high-content imaging; system = LDR reporter GFP cells; setting = confirmation, mean of two runs; endpoint = EC50; result = 794 nM
SMILES = N#C[C@@]1(n2ccc(N)nc2=O)O[C@H](CO)[C@@H](O)[C@H]1O; organism = hepatitis B virus; assay = viral replication, cell-based; endpoint = EC50; result = > 10000 nM
SMILES = COC(=O)[C@@H]1[C@@H](c2ccccc2)[C@]2(c3ccc(OC)cc3)Oc3cc(OC)cc(OC)c3[C@@]23N=C(C)N[C@@]13O; organism = Hepatitis E virus; assay = viral replication; system = HepG2 HEV-3 replicon, genotype 3; setting = 48 h; endpoint = EC50; result = 2.28 nM
